# Experimental data pooled from the literature.
# Protocols differ between the studies behind these lines. ± gives the spread as reported.
Structure (SMILES),assay,system,setting,how to read,quantity,value
CC[C@H]1[C@@H](O)[C@@H]2[C@H](CC[C@]3(C)[C@@H]([C@H](C)CCOS(=O)(=O)[O-])CC[C@@H]23)[C@@]2(C)CC[C@@H](O)C[C@@H]12.[Na+],"immunohistochemistry, refers to: collagen 1a1","ob/ob NASH mouse model, liver","3.0 mg/kg, 16 weeks",,fractional area,8.5 ± 0.6%
Cc1nc(C)c(C=[N+]([O-])C(C)(C)C)nc1C,"immunofluorescence, refers to: 4-HNE","MPTP mouse model, substantia nigra",30 mg/kg,baseline: sham,fluorescence intensity,295 ± 16.4%
C[C@H](NC(=O)COC(=O)[C@H](C)NC(=O)CO)C(=O)O,,water,"pH 6, 65 °C",,depolymerization rate constant,4.21 h⁻¹
CC[C@H](C)[C@H](NC(=O)[C@H](CCC(=O)O)NC(=O)[C@H](C)NC(=O)[C@@H](NC(=O)[C@H](Cc1c[nH]cn1)NC(=O)[C@@H](NC(=O)[C@H](CCC(=O)O)NC(=O)[C@H](C)NC(=O)[C@@H](NC(=O)[C@H](CC(C)C)NC(=O)[C@H](CCCCN)NC(=O)[C@H](Cc1c[nH]cn1)NC(=O)[C@H](CC(C)C)NC(=O)[C@H](Cc1ccccc1)NC(=O)[C@H](C)NC(=O)[C@H](CCCNC(=N)N)NC(=O)[C@H](CCCNC(=N)N)NC(=O)[C@H](CCCNC(=N)N)NC(=O)[C@H](C)NC(=O)[C@H](CC(=O)O)NC(=O)[C@H](CCC(N)=O)NC(=O)[C@@H](NC(=O)[C@H](Cc1c[nH]c2ccccc12)NC(=O)[C@H](CCCCN)NC(=O)[C@H](C)NC(=O)[C@H](CCCNC(=N)N)NC(=O)[C@H](CCC(N)=O)NC(=O)[C@H](Cc1c[nH]cn1)NC(=O)[C@H](CCSC)NC(=O)[C@H](CC(C)C)NC(=O)[C@H](CCC(N)=O)NC(=O)[C@@H](NC(=O)[C@H](CCC(=O)O)NC(=O)[C@H](C)NC(=O)[C@@H](NC(=O)[C@H](C)N)C(C)C)[C@@H](C)CC)[C@@H](C)CC)[C@@H](C)CC)[C@@H](C)CC)[C@@H](C)O)C(=O)O,,"cynomolgus monkey, serum","subcutaneous, 2.5 and 10.0 nmol/kg, frank hypercalcaemia",,serum calcium,13 to 16 mg/dL
C[C@@H](O)[C@@H]1NC(=O)[C@H](CCCCN)NC(=O)[C@@H](Cc2ccc(NC(N)=O)cc2)NC(=O)[C@H](Cc2ccc(NC(=O)[C@@H]3CC(=O)NC(=O)N3)cc2)NC(=O)[C@H](NC(=O)[C@H](Cc2ccc(Cl)cc2)NC(=O)CN2CCN(CC(=O)O)CCN(CC(=O)O)CCN(CC(=O)O)CC2)CSSC[C@@H](C(=O)N[C@H](Cc2ccc(O)cc2)C(N)=O)NC1=O [gallium-68 labelled],PET/CT,"neuroendocrine tumour patients, lymph node lesions",60 min,,SUVmean,7 ± 6
CC[C@H](C)[C@@H]1NC(=O)[C@H](Cc2ccccc2)NC(=O)[C@H](CCC(=O)O)NC(=O)[C@H](CCCNC(=N)N)NC(=O)CNC(=O)[C@@H](NC(=O)[C@H](CC(C)C)NC(=O)[C@H](CCCNC(=N)N)NC(=O)[C@@H](NC(=O)CNC(=O)[C@H](Cc2ccc(O)cc2)NC(=O)[C@@H]2CCCN2C(=O)[C@H](C)NC(=O)[C@H](C)NC(=O)[C@@H](N)CCCNC(=N)N)C(C)C)CSSC[C@@H]2NC(=O)[C@@H](NC(=O)[C@H](CO)NC(=O)[C@H](CO)NC(=O)[C@H](CO)NC(=O)[C@H](CC(C)C)NC(=O)CNC(=O)[C@H](C)NC(=O)[C@H](CC(C)C)NC(=O)[C@@H](NC(=O)[C@@H](N)CC(=O)O)C(C)C)CSSC[C@H](NC(=O)CNC(=O)[C@H](Cc3c[nH]c4ccccc34)NC(=O)[C@H](CCCCN)NC2=O)C(=O)N[C@@H](CO)C(=O)N[C@@H](CCCCN)C(=O)N[C@@H](CO)C(=O)N[C@@H](CCC(=O)O)C(=O)N[C@@H]([C@@H](C)CC)C(=O)N[C@@H](CO)C(=O)N[C@@H](CO)C(=O)N[C@@H](CC(C)C)C(=O)N[C@H](C(=O)O)CSSC[C@@H](C(=O)NCC(=O)NCC(=O)N[C@@H](CO)C(=O)N[C@@H](CCCNC(=N)N)C(=O)N[C@@H](Cc2c[nH]c3ccccc23)C(=O)O)NC(=O)[C@H]([C@@H](C)O)NC(=O)[C@H](Cc2ccccc2)NC(=O)[C@H]([C@@H](C)CC)NC(=O)[C@H](C(C)C)NC(=O)[C@H](C)NC(=O)[C@H](CCCNC(=N)N)NC1=O,forced swim test,female Sprague-Dawley rats,"intranasal, 275 µg/kg, day 2",baseline: vehicle,climbing behaviour,increased
Cc1cc2c(cc1C1(c3ncc(C(=O)O)cn3)CC1)C(C)(C)CCC2(C)C,"RNA sequencing, refers to: Pdk4","rat, brain","dose not given, 24 h",baseline: vehicle,log2 fold change,-0.07
O=c1c(OCc2ccccc2)c(-c2ccc([N+](=O)[O-])cc2)oc2ccccc12,,diabetic rat,"5 mg/kg, day 21, p-nitrophenyl β-glucoside induced",,blood glucose,189 ± 4.65 mg/dL
CCN1CCN(Cn2nc(C34CC5CC(CC(C5)C3)C4)n(-c3ccccc3)c2=S)CC1,paw oedema,rat,"intraperitoneal, 20 mg/kg",,inhibition in vivo,13.2%
COC(=O)[C@H](CSSC(C)(C)[C@H](NC(=O)[C@H](CCC(=O)NC[C@H](O)[C@@H](O)[C@H](O)[C@H](O)CO)NC(=O)[C@H](CCC(=O)O)NC(=O)[C@H](CCC(=O)NC[C@H](O)[C@@H](O)[C@H](O)[C@H](O)CO)NC(=O)[C@H](CCC(=O)O)NC(=O)[C@H](CCC(=O)NC[C@H](O)[C@@H](O)[C@H](O)[C@H](O)CO)NC(=O)CC[C@H](NC(=O)c1ccc(NCc2cnc3nc(N)[nH]c(=O)c3n2)cc1)C(=O)O)C(=O)O)NC(=O)CC[C@H](NC(=O)c1ccc(NCc2cnc3nc(N)nc(N)c3n2)cc1)C(=O)O,flow cytometry,"Lewis rat, adjuvant-induced arthritis, blood","subcutaneous, 1000 nmol/kg twice weekly × 1",,CD172+ CD43− monocyte effect,decreased
O=c1c(OCc2ccccc2)c(-c2ccc(Cl)cc2)oc2ccccc12,,diabetic rat,"7.5 mg/kg, day 28, p-nitrophenyl β-glucoside induced",,blood glucose,140 ± 4.64 mg/dL
CCOC(=O)c1cc2cc(-c3cc(C(=O)NCc4ccc(C(=O)O)cc4)nn3C)ccc2[nH]1,,"female B10.RIII mice, antibody-induced arthritis","oral, 100 mg/kg twice daily, day 14, dosing from day 4",baseline: vehicle,arthritic score,decreased
CC(C)[C@H](NC(=O)CN)C(=O)N[C@@H](CCCCN)C(=O)NCC(=O)N[C@@H](CC(=O)O)C(=O)N[C@@H](CCCCN)C(=O)NCC(=O)N[C@@H](CC(N)=O)C(=O)N1CCC[C@H]1C(=O)NCC(=O)N[C@@H](Cc1c[nH]c2ccccc12)C(=O)N1CCC[C@H]1C(=O)NCC(=O)N[C@@H](C)C(=O)N1CCC[C@H]1C(=O)O,,"C6 glioma, rat","100 µg/mL coating, peptide-coated plates",baseline: input cells,cell adhesion,35.9%
COc1cc(CN2CCN(c3cccc(Cl)c3)CC2)c2cc3[n+](cc2c1O)CCc1cc2c(cc1-3)OCO2,"ABTS scavenging, absorbance",,10 min,,IC50,5.28 µg/mL
Cc1ccc(-c2oc3ccccc3c(=O)c2OCc2ccccc2)cc1,,diabetic rat,"5 mg/kg, day 7, p-nitrophenyl β-glucoside induced",,blood glucose,333 ± 4.89 mg/dL
O=C1CC(c2ccc(O)cc2)Oc2c1c(O)cc1oc3cc(O)c(O)cc3c21 (racemic),"DPPH scavenging, absorbance",,,,EC50,170 µM
CC(C)CN(CC(C)C)C(=O)/C=C/C=C/c1ccc2c(c1)OCO2,open field,C57BL/6N mice,"ip, 30 mg/kg, 30 min before test, 10 min test",,total distance travelled,28.6 ± 2.5 m
CC(C)(O)c1ccc(N2Cc3c(ccnc3-c3ccc(F)cc3OCC(F)(F)F)C2=O)cc1,"refers to: GM2, GM1","Gba D409V knock-in mouse, Gaucher model, cerebral cortex","10 or 30 mg/kg, 2 months",,ganglioside level,decreased
N#Cc1cc(C(=O)OCC[18F])c(C(F)(F)F)nc1N1CCN(C(=O)Cc2ccccc2)CC1,PET,"human, epileptic focus",,,SUVmean,1.29 ± 0.28
CSCC[C@@H]1NC(=O)[C@H](CCCCN)NC(=O)[C@H]([C@@H](C)O)NC(=O)[C@H](CCCCN)NC(=O)[C@H](CC(C)C)NC(=O)[C@H](CCCCN)NC(=O)[C@H](CCCNC(=N)N)NC(=O)[C@@H]2CSSC[C@@H]3NC(=O)[C@@H]4CCCN4C(=O)[C@H](C(C)C)NC(=O)[C@H](CCC(N)=O)NC(=O)[C@H](CCC(N)=O)NC(=O)CNC(=O)[C@H](CC(C)C)NC(=O)[C@@H]4CSSC[C@H](NC(=O)[C@H]([C@@H](C)O)NC(=O)[C@H](C)NC(=O)[C@H](CSSC[C@@H](C(=O)N[C@@H](CO)C(=O)N[C@@H](CCCNC(=N)N)C(=O)N[C@H](C(N)=O)[C@@H](C)O)NC(=O)[C@@H]5CCCN5C(=O)[C@H](CC(N)=O)NC1=O)NC(=O)[C@@H]1CCCN1C(=O)[C@H](CC(=O)O)NC(=O)[C@H](CSSC[C@H](NC(=O)[C@H](CCCNC(=N)N)NC(=O)[C@H](CCCNC(=N)N)NC(=O)[C@H](CO)NC(=O)[C@@H](N)CO)C(=O)N[C@@H](C(C)C)C(=O)N[C@@H](CCCNC(=N)N)C(=O)N[C@@H](CC(C)C)C(=O)N[C@@H](Cc1c[nH]cn1)C(=O)N[C@@H](CCC(=O)O)C(=O)N[C@@H](CO)C(=O)N4)NC3=O)C(=O)N[C@@H](Cc1ccc(O)cc1)C(=O)N[C@H]1CSSC[C@H](NC(=O)[C@H](Cc3ccccc3)NC(=O)[C@H](C)NC(=O)[C@H](CC(N)=O)NC(=O)[C@H](Cc3ccccc3)NC(=O)[C@H](Cc3ccccc3)NC(=O)[C@H](CCCNC(=N)N)NC1=O)C(=O)N[C@@H](Cc1ccc(O)cc1)C(=O)N2,,"Long-Evans rat, male","intracerebroventricular, 1.0 nmol in 1.0 µL, 24 h, non-cumulative",baseline: saline,food intake,116 ± 7.5 % above saline
COc1cc(F)c([C@@H]2CNC(=O)[C@H]2NC(=O)Nc2ccccc2)c(F)c1,flow cytometry,"mouse, myocardial infarction (LAD ligation), heart","3 mg/kg, 72 h",baseline: vehicle,CD206- of CD64+ macrophages,-60%
O=c1cc(-c2ccc(O)c(O)c2)oc2cc(O[C@@H]3O[C@H](CO)[C@@H](O)[C@H](O)[C@H]3O)cc(O)c12,"ABTS scavenging, absorbance",,15 min,,IC50,113 µg/mL
COc1ccc(C2CC(c3ccc(C)cc3)=Nc3ccccc3S2)cc1OC (stereo not drawn),,"Wistar rat, STZ-induced diabetes","oral, 20 mg/kg once daily, day 14",,blood glucose,155 mg/dL
COc1ccc2c(c1)c(CC(=O)OCC(=O)c1ccccc1)c(C)n2C(=O)c1ccc(Cl)cc1,hot plate test,BALB/c mice,"100 mg/kg, 90 min",,latency of nociceptive response,16.7 ± 1.16 s
CCc1nc(-c2ccc(-c3ccc(CCC(N)(CO)CO)cc3)cc2)co1,flow cytometry,"BALB/c mouse, imiquimod psoriasis model, blood and spleen",dose not given,baseline: imiquimod model group,CD3+ T cells,decreased
CC(C)C[C@H](N)C(=O)N[C@@H](CO)C(=O)N[C@@H](Cc1ccccc1)C(=O)N1CCC[C@H]1C(=O)N[C@H](C(=O)N[C@H](C(=O)N[C@@H](CCCCN)C(=O)N[C@H](C(=O)N[C@@H](Cc1ccc(O)cc1)C(=O)N[C@@H](Cc1ccccc1)C(=O)O)[C@@H](C)O)[C@@H](C)O)[C@@H](C)O,radiotelemetry,mouse normotensive,"intraperitoneal, 5 mg/kg every other day",,systolic blood pressure decrease,~5 mmHg
S=c1n(CN2CCN(c3ccccn3)CC2)nc(C23CC4CC(CC(C4)C2)C3)n1-c1ccccc1,paw oedema,rat,"intraperitoneal, 20 mg/kg",,inhibition in vivo,33.5%
O=[N+]([O-])c1ccc2[nH]c(-c3ccco3)nc2c1,"ABTS scavenging, absorbance",,,,IC50,1.59 µM
CC[C@@H](C)N([11CH3])C(=O)c1nc(-c2ccccc2Cl)c2ccccc2n1,PET from VT/fP,"rhesus monkey, cerebellum",dose not given,,TSPO specific binding,88%
O=c1c(OCc2ccccc2)c(-c2cccc([N+](=O)[O-])c2)oc2ccccc12,,diabetic rat,"5 mg/kg, day 14, p-nitrophenyl β-glucoside induced",,blood glucose,236 ± 4.68 mg/dL
Nc1nc2cc(CC[C@H]3C[C@@H](n4ccc5c(N)ncnc54)[C@H](O)[C@@H]3O)ccc2cc1Br,"inhibitor, refers to: SmD1/3 dimethylarginine","mice, NCI-H1048 xenograft, tumour","10 mg/kg, after stop of treatment",,recovery time,6 days
CN(C)c1ccc(-c2oc3ccccc3c(=O)c2OCc2ccccc2)cc1,,diabetic rat,"5 mg/kg, day 1, p-nitrophenyl β-glucoside induced",,blood glucose,407 ± 4.12 mg/dL
O=C1/C(=C/c2ccc(O)c(O)c2)Oc2cc(O)c(-c3ccc(O)c(O)c3)c(O)c21,"DPPH scavenging, absorbance",,,,EC50,420 µM
CC(=O)Nc1ccc(OC(=O)CCC(=O)[O][Pt-2]23([O]C(=O)CCC(=O)Oc4ccc(NC(C)=O)cc4)([NH2+][C@@H]4CCCC[C@H]4[NH2+]2)[O]C(=O)C(=O)[O]3)cc1,,"BALB/c mouse, 4T1 tumour, tumour tissue",dose not given,baseline: PBS,IFN-alpha level,2.4 fold
Cc1cc(O)c(C=O)c2c1C(=O)Oc1c(CO)c(O)c3c(c1O2)C(O)OC3=O (stereo not drawn),copulatory behaviour test,"rat, male, streptozotocin-induced diabetes","10 mg/kg, day 63",,post-ejaculatory interval,1270 ± 154 s
O=c1cc(-c2ccc(O)cc2)oc2c1c(O)cc1oc3cc(O)c(O)cc3c12,"DPPH scavenging, absorbance",,,,EC50,> 20000 µM

# Excerpt of the above:
Structure (SMILES),assay,system,setting,how to read,quantity,value
CC[C@@H](C)N([11CH3])C(=O)c1nc(-c2ccccc2Cl)c2ccccc2n1,PET from VT/fP,"rhesus monkey, cerebellum",dose not given,,TSPO specific binding,88%
O=c1c(OCc2ccccc2)c(-c2cccc([N+](=O)[O-])c2)oc2ccccc12,,diabetic rat,"5 mg/kg, day 14, p-nitrophenyl β-glucoside induced",,blood glucose,236 ± 4.68 mg/dL
Nc1nc2cc(CC[C@H]3C[C@@H](n4ccc5c(N)ncnc54)[C@H](O)[C@@H]3O)ccc2cc1Br,"inhibitor, refers to: SmD1/3 dimethylarginine","mice, NCI-H1048 xenograft, tumour","10 mg/kg, after stop of treatment",,recovery time,6 days
